Measurements of several laboratories.
Each line is one published result; not all experiments were run side by side. Several values in a cell are separate wells, animals, samples, runs or records. Numbers after ± are the reported error.

Cn1c(=O)oc2ccc(-c3ccc(C[C@@H](C#N)NC(=O)[C@@H]4CNCCCO4)cc3)cc21
Cmax (HPLC-MS/MS; healthy male humans, plasma; oral, 10 mg): 246 nM

Cn1cncc1[C@@](N)(c1ccc(Cl)cc1)c1ccc2c(c1)c(-c1cccc(Cl)c1)cc(=O)n2C
Cmax (healthy human subjects, plasma; oral, 100 mg, fasted): 260 ng/mL

Cn1cnc2c(F)c(Nc3ccc(Br)cc3Cl)c(C(=O)NOCCO)cc21
Cmax (human ESRD on haemodialysis; oral, 50 mg, before dialysis): 507 ng/mL

Cc1cc(Nc2cc3ncccc3c(N[C@@H]3C[C@H]4CC[C@@H](C3)N4CCC#N)n2)n[nH]1
Cmax (human, plasma; 80 mg, day 1, geometric mean): 1.58 ng/mL

COC(=O)N[C@@H](C)CNc1nccc(-c2cn(C(C)C)nc2-c2cc(Cl)cc(NS(C)(=O)=O)c2F)n1
Cmax (human patients, plasma; oral, 450 mg twice daily, day 14, steady state, geometric mean, added: binimetinib 45 mg once daily): 3240 ng/mL

C=CC(=O)NC1CCN(c2ncc3ncnc(Nc4ccc(Oc5ccc6c(c5)ncn6C)c(C)c4)c3n2)CC1
Cmax (human, male, plasma; oral, 240 mg single dose, fasted, geometric mean): 3700 nM

C=CCNC1=C2C[C@@H](C)C[C@H](OC)[C@H](O)[C@@H](C)/C=C(\C)[C@H](OC(N)=O)[C@@H](OC)/C=C\C=C(/C)C(=O)NC(=CC1=O)C2=O
Cmax (human, plasma; 400 mg/m2): 7820 ng/mL

COc1nnc2ccc(N3CCC(c4ccc(OCCN5CCN(C)C(=O)[C@H]5C)cc4)CC3)nn12
Cmax (human, plasma; oral, 5 mg once daily, single dose, monotherapy): 21.4 nM

O=C(NCCN1CCCC1)c1cc(-c2ccc(CN3CCOCC3)cc2)nc2ccc(F)cc12
Cmax (human, whole blood; oral, 2100 mg): 1240 ng/mL

Cc1ccc(C(=O)N(CCCN)C(c2nc3snc(C)c3c(=O)n2Cc2ccccc2)C(C)C)cc1 (stereo not drawn)
Cmax (human patients, plasma; intravenous, 4 mg/day, day 3 of induction course, geometric mean): 19.3 ng/mL

COc1ccc2[nH]c([S@+]([O-])Cc3ncc(C)c(OC)c3C)nc2c1
Cmax (human male, dried plasma spots; oral, 5 mg racemic omeprazole, added: rifampicin pretreatment): 8 nM

CN1CCC(COc2cnc(-c3cccc(Cn4nc(-c5cccc(C#N)c5)ccc4=O)c3)nc2)CC1
Cmax (human; dose not given, single dose, geometric mean, added: itraconazole 200 mg once daily): 313 ng/mL

COc1cc(-c2cnc3cc(OCCN4CCOCC4)ccn23)cc2c1C(=O)N(CC(F)(F)F)CC2
Cmax (LC-MS; human, plasma; oral, 350 mg, day 5, added: methotrexate 7.5 mg): 1750 ng/mL

FC(F)(F)c1ccc(CNc2ccc(Cc3c[nH]c4ncc(Cl)cc34)cn2)cn1
Cmax (human, plasma; oral, 600 mg, single dose): 4140 ng/mL

CC(C)(C#N)c1cc(Cn2cncn2)cc(C(C)(C)C#N)c1
Cmax (human; 125 mg): 15.6 ng/mL

COc1ccc2[nH]c([S@+]([O-])Cc3ncc(CO)c(OC)c3C)nc2c1
Cmax (human, dried plasma spots; 5 mg racemic omeprazole, added: fluvoxamine and voriconazole): 38.8 nM

Nc1ccn([C@@H]2O[C@H](CO)[C@@H](O)C2(F)F)c(=O)n1
Cmax (human, plasma; intravenous, 800 mg/m^2, mean, before paricalcitol): 18000 ng/mL

Cc1cc(OCCOCCC(F)(F)P(=O)(O)O)ccc1CCc1cnc2c(N)nc3cc(CCC(=O)O)ccc3c2c1
Cmax (human, serum; intratumoral, 400 µg every 2 weeks, cycle 1 day 1): 3.49 ng/mL

C#C[C@]1(CO)O[C@@H](n2cnc3c(N)nc(F)nc32)C[C@@H]1O
Cmax (human, plasma; oral, 400 mg, single dose, geometric mean): 9760 nM

CNC(=O)c1c(C)oc2cc(Oc3ncnc4cc(OC)c(OC)cc34)ccc12
Cmax (human, normal hepatic function, plasma; oral, dose not given, single dose): 120 ng/mL

Cc1ncnc2c1ccn2[C@@H]1C[C@H](Oc2cc(C(F)F)c(F)c3c2CNCC3)[C@@H](O)[C@H]1O
Cmax (human, plasma; 8 mg once daily): 142 ng/mL and 58.2 ng/mL

CCN(CC)CCNC(=O)c1c(C)[nH]c(/C=C2\C(=O)Nc3ccc(F)cc32)c1C
Cmax (human, normal hepatic function (Child-Pugh), plasma; single dose, geometric mean, total drug): 21.9 ng/mL

N[C@]1(C(=O)O)[C@H]2[C@@H](C[C@@H]1F)[C@@H]2C(=O)O
Cmax (human, both sexes, plasma; oral, 10 mg, fed, single dose): 26.6 ng/mL

CNC(=O)c1cc(Oc2ccc(NC(=O)Nc3ccc(Cl)c(C(F)(F)F)c3)cc2)ccn1
Cmax (human patients, plasma; oral, 400 mg twice daily, steady state, geometric mean, added: rifampin 600 mg oral): 9760 ng/mL

CCN(CCO)CCCC(C)Nc1ccnc2cc(Cl)ccc12 (stereo not drawn)
Cmax (human patient, whole blood; oral, 200 mg, steady state): 932 ng/mL and 578 ng/mL

COc1cc(C(=O)NC2CCN(C)CC2)c(F)cc1Nc1ncc(C(F)(F)F)c(Oc2cccc3c2C(=O)N(C)C3)n1
Cmax (human, Japanese, plasma; oral, 200 mg single dose, geometric mean): 1640 nM

C[C@H](CCC(=O)O)[C@H]1CC[C@H]2[C@@H]3CC[C@@H]4C[C@H](O)CC[C@]4(C)[C@H]3C[C@H](O)[C@]12C
Cmax (human, plasma; oral, dose not given; baseline: untreated): 926 ± 251 nM

NC[C@@]1(CC(=O)O)[C@@H]2CC[C@H]3C[C@@H]2[C@@H]1C3
Cmax (human, normal renal function, plasma; geometric least squares mean): 360 ng/mL

Cc1nc(-c2ccc(OCC(C)C)c(C#N)c2)sc1C(=O)O
Cmax (human, plasma; oral, 10 mg once daily, added: verinurad 5 mg): 240 ng/mL

Cc1cc(C)c(CNC(=O)c2cc(Cl)c3c(c2C)O[C@@](C)([C@H]2CC[C@H](N(C)C)CC2)O3)c(=O)[nH]1
Cmax (geometric LS mean; healthy male humans, plasma; oral, dose not given, added: fluconazole): 132 ng/mL

Cc1cc(-c2nccc3c2ccn3CC(=O)Nc2ccc(-c3cnccn3)cn2)ccn1
Cmax (human, plasma; oral, 15 mg once daily, day 16, geometric mean): 202 nM

Fc1ccc([C@@H]2CCNC[C@H]2COc2ccc3c(c2)OCO3)cc1
Cmax (human, all CYP2D6 genotypes; oral, 20 mg, steady state, geometric mean): 31 ng/mL

Cc1ncc(CO)c(C(=O)O)c1O
Cmax (human males, Hispanic/Latino, plasma; concentration not given, endogenous baseline level): 3.3 ± 0.4 ng/mL

Cn1c(=O)oc2ccc(-c3ccc(C[C@@H](C#N)NC(=O)[C@@H]4CNCCCO4)cc3)cc21
Cmax (human, severe renal impairment, plasma; oral, 25 mg single dose, mean): 141 ng/mL

COCCc1ccc(OCC(O)CNC(C)C)cc1 (stereo not drawn)
Cmax (measured: sum of R and S enantiomers; human, plasma; oral, 100 mg single dose): 30.6 ng/mL

N[C@](CO)(CCc1ccc(Sc2cccc(OCc3ccccc3)c2)cc1Cl)COP(=O)(O)O
Cmax (human, fed, whole blood; 3 mg, geometric mean, alone): 1.28 ng/mL

NC1(C(=O)N[C@@H](CCO)c2ccc(Cl)cc2)CCN(c2nc[nH]c3nccc2-3)CC1
Cmax (human patients, plasma; dose not given, cohort 160/400, cycle 0, geometric mean): 1200 ng/mL

CC(C)NC(=O)COc1cccc(-c2nc(Nc3ccc4[nH]ncc4c3)c3ccccc3n2)c1
Cmax (human, male, fed, plasma; oral, 200 mg, day 3, geometric mean): 2130 ng/mL

Cn1nc2c(=O)n(C3CC3)cnc2c1[C@](O)(c1cnc(C(F)(F)F)c(Cl)c1)C(F)(F)F
Cmax (humanized SCID mice, blood; 1 mg/kg once daily, 6 days, infected): 506 nM

CC(C)(Sc1ccncc1-c1ccc(C#N)c2ccccc12)C(=O)O
Cmax (human, plasma; oral, 2.5 mg once daily, added: febuxostat 10 mg): 6.25 ng/mL

COC(=O)N[C@@H](C)CNc1nccc(-c2cn(C(C)C)nc2-c2cc(Cl)cc(NS(C)(=O)=O)c2F)n1
Cmax (human, plasma; oral, 50 mg, added: posaconazole 400 mg twice daily; geometric mean): 932 ng/mL

CC(=O)c1cc(C(=O)N[C@@H](C)Cn2ccc(-c3ccc(C#N)c(Cl)c3)n2)[nH]n1
Cmax (healthy male human, plasma; intravenous infusion, 100 µg 14C-labelled, 15 min infusion, microtracer, geometric mean): 2350 pg eq/mL

Cc1nc2ccc(F)cc2n1-c1nc(N)c(F)c(Nc2ccc(C(F)(F)F)cc2)n1
Cmax (human patients, plasma; oral, 300 mg twice weekly, cycles 1 and 2 pooled): 1580 ng/mL

CC1(COc2ccc3c(c2)ncn3-c2ccc3cccc(N4CCC(N)CC4)c3n2)COC1
Cmax (human patients, recurrent/progressive HGG or DIPG, serum; oral, 170 mg/m^2, day 1, median): 634 nM

Cc1ccc(C(=O)NC2CC2)cc1-n1ncc(C(=O)c2cccc(C#N)c2)c1N
Cmax (healthy human; oral, 50 mg single, mean): 406 ng/mL

Cn1nnc2c(C(N)=O)ncn2c1=O
Cmax (human patients, plasma; oral, 20 mg/m2, day 5, dose level DL3, median, added: talazoparib 600 µg/m2): 430 ng/mL

C[C@H](CCC(=O)NCC(=O)O)[C@H]1CC[C@H]2[C@@H]3[C@H](O)C[C@@H]4C[C@H](O)CC[C@]4(C)[C@H]3C[C@H](O)[C@]12C
Cmax (human, plasma; concentration not given, endogenous baseline diurnal): 188 ± 32 nM

N#Cc1cc(NC(=O)[C@H]2c3ccccc3C(=O)N(CC(F)(F)F)[C@@H]2c2cccnc2)ccc1F
Cmax (human, plasma; oral, 600 mg, fed, median, interim): 1730 ng/mL

N#Cc1ccc2c(c1)[C@H]1CCCN(C(=O)c3ccc4[nH]cnc4c3)[C@H]1C2
Cmax (human, plasma; oral, 240 mg once daily, after first dose): 14300 nM

C[C@H](Oc1ccc(Br)cc1-c1ccon1)C(=O)O
Cmax (LC-MS/MS, non-compartmental; human, plasma; 200 mg once daily, day 10, multiple ascending dose, mean): 8920 ng/mL

CO[C@@H]1[C@H](N(C)C(=O)c2ccccc2)C[C@H]2O[C@]1(C)n1c3ccccc3c3c4c(c5c6ccccc6n2c5c31)C(=O)NC4
Cmax (human patients, induction therapy, plasma; oral, 50 mg twice daily, day 21, mean): 11000 ng/mL

COc1cc2ncnc(Nc3ccc(F)c(Cl)c3)c2cc1NC(=O)/C=C/CN1CCCCC1
Cmax (measured: total drug; human, severe hepatic impairment, plasma; single dose, NCI classification): 12.5 ng/mL

N#CCNC(=O)c1ccc(-c2ccnc(Nc3ccc(N4CCOCC4)cc3)n2)cc1
Cmax (healthy human volunteers, plasma; oral, 100 mg once daily, day 7, fed, given alone): 261 ng/mL

CCn1c(=O)c(-c2cc(NC(=O)Nc3ccccc3)c(F)cc2Br)cc2cnc(NC)cc21
Cmax (human, plasma; oral, 150 mg once daily, steady state): 728 ng/mL

CO[C@@H]1[C@H](OC(=O)N2CC(CCN3CCOCC3)C2)CC[C@]2(CO2)[C@H]1[C@@]1(C)O[C@@H]1CC=C(C)C
Cmax (humans, plasma; subcutaneous, 0.2 mg twice weekly, fifth dose): 0.51 ± 0.17 ng/mL

CC[C@H](C)[C@@H]([C@@H](CC(=O)N1CCC[C@H]1[C@H](OC)[C@@H](C)C(=O)N[C@@H](Cc1ccccc1)C(=O)NCCCO)OC)N(C)C(=O)[C@@H](NC(=O)[C@H](C(C)C)N(C)C)C(C)C
Cmax (human patients, plasma; intravenous, 36 mg/m², cycle 1 geometric mean): 6.73 ng/mL

C[C@H](CCC(=O)NCC(=O)O)[C@H]1CC[C@H]2[C@@H]3[C@H](O)C[C@@H]4C[C@H](O)CC[C@]4(C)[C@H]3CC[C@]12C
Cmax (human, plasma; concentration not given, endogenous baseline diurnal): 1410 ± 235 nM

Cc1cn(C(=O)c2c(-c3c(Cl)cc(Cl)cc3Cl)noc2C(C)(C)F)c2cccc(/C=C/C(=O)O)c12
Cmax (human patients; 700 mg bid, cycle 8 day 1): 37200 ng/mL

CC1=C(c2cccc(O)c2)[C@H](c2ccc(OCCN3CC(CF)C3)cc2)Oc2ccc(O)cc21
Cmax (human, plasma; oral, 600 mg once daily, steady state geometric mean): 88 ng/mL

CCN1CCN(Cc2ccc(Nc3ncc(F)c(-c4cc(F)c5nc(C)n(C(C)C)c5c4)n3)nc2)CC1
Cmax (healthy human, fasted; oral, 150 mg, 3 x 50 mg capsules): 95.8 ng/mL

Repeated from above:
C[C@H](CCC(=O)NCC(=O)O)[C@H]1CC[C@H]2[C@@H]3[C@H](O)C[C@@H]4C[C@H](O)CC[C@]4(C)[C@H]3C[C@H](O)[C@]12C
Cmax (human, plasma; concentration not given, endogenous baseline diurnal): 188 ± 32 nM

CCN(CCO)CCCC(C)Nc1ccnc2cc(Cl)ccc12 (stereo not drawn)
Cmax (human patient, whole blood; oral, 200 mg, steady state): 932 ng/mL and 578 ng/mL

CC(C)(C#N)c1cc(Cn2cncn2)cc(C(C)(C)C#N)c1
Cmax (human; 125 mg): 15.6 ng/mL

FC(F)(F)c1ccc(CNc2ccc(Cc3c[nH]c4ncc(Cl)cc34)cn2)cn1
Cmax (human, plasma; oral, 600 mg, single dose): 4140 ng/mL

CO[C@@H]1[C@H](OC(=O)N2CC(CCN3CCOCC3)C2)CC[C@]2(CO2)[C@H]1[C@@]1(C)O[C@@H]1CC=C(C)C
Cmax (humans, plasma; subcutaneous, 0.2 mg twice weekly, fifth dose): 0.51 ± 0.17 ng/mL

CCN1CCN(Cc2ccc(Nc3ncc(F)c(-c4cc(F)c5nc(C)n(C(C)C)c5c4)n3)nc2)CC1
Cmax (healthy human, fasted; oral, 150 mg, 3 x 50 mg capsules): 95.8 ng/mL

COc1cc(C(=O)NC2CCN(C)CC2)c(F)cc1Nc1ncc(C(F)(F)F)c(Oc2cccc3c2C(=O)N(C)C3)n1
Cmax (human, Japanese, plasma; oral, 200 mg single dose, geometric mean): 1640 nM

Cc1cc(-c2nccc3c2ccn3CC(=O)Nc2ccc(-c3cnccn3)cn2)ccn1
Cmax (human, plasma; oral, 15 mg once daily, day 16, geometric mean): 202 nM
